Assay results gathered from unrelated publications.
Each line is one published result; not all experiments were run side by side. Numbers after ± are the reported error.

CC(C)[C@H](NC(=O)[C@@H]1CCCN1C(=O)[C@H](CCCNC(=N)N)NC(=O)[C@H](CS)NC(=O)[C@H](Cc1c[nH]c2ccccc12)NC(=O)[C@H](CCCNC(=N)N)NC(=O)[C@@H](Cc1ccccc1)NC(=O)[C@H](Cc1c[nH]cn1)NC(=O)[C@H](CCC(=O)O)NC(=O)[C@H](CS)NC(=O)[C@H](CS)NC(=O)[C@H](CCCCN)NC(=O)[C@@H]1CC(=O)N[C@@H](CCCNC(=N)N)C(=O)N[C@@H]([C@@H](C)O)C(=O)N[C@@H](CC(=O)O)C(=O)N[C@H](Cc2ccc(O)cc2)C(=O)N1)C(N)=O [technetium-99m labelled]
tissue uptake (C57 mouse, female, B16/F1 melanoma, stomach; intravenous, 2 h, added: NDP-MSH 10 µg co-injected): 1.11 ± 0.82 %ID/g

COC(=O)C[C@](O)(CCCC(C)(C)O)C(=O)O[C@@H]1C(OC)=C[C@]23CCCN2CCc2cc4c(cc2[C@H]13)OCO4
tissue concentration (CD1 mouse, brain; oral, 1 mg/kg, 8 h, below quantification limit 1.00 ng/mL): not detected

CC(C)[C@H](NC(=O)[C@@H]1CCCN1C(=O)[C@H](CCCNC(=N)N)NC(=O)[C@H](CS)NC(=O)[C@H](Cc1c[nH]c2ccccc12)NC(=O)[C@H](CCCNC(=N)N)NC(=O)[C@@H](Cc1ccccc1)NC(=O)[C@H](Cc1c[nH]cn1)NC(=O)[C@H](CCC(=O)O)NC(=O)[C@H](CS)NC(=O)[C@H](CS)NC(=O)[C@H](CCCCN)NC(=O)[C@@H]1CC(=O)N[C@@H](CCCNC(=N)N)C(=O)N[C@@H](C(C)C)C(=O)N[C@@H](CC(=O)O)C(=O)N[C@H](Cc2ccc(O)cc2)C(=O)N1)C(N)=O [technetium-99m labelled]
tissue uptake (C57 mouse, female, B16/F1 melanoma, brain; intravenous, 2 h, added: NDP-MSH 10 µg co-injected): 0.03 ± 0.01 %ID/g

COc1ccc(-c2cc(=O)c3c(OC)c(OC)c(OC)c(OC)c3o2)cc1
tissue to peel content ratio (C57BL/6 mouse, male, colon; oral, 1% w/w in diet, 6 weeks, orange peel extract diet; relative to: content in orange peel): 0.121%

CC(=O)N[C@H](CCNC(=O)c1cc(NC(=O)c2cc(NC(=O)c3cc(NC(=O)c4nccn4C)cn3C)cn2C)cn1C)C(=O)Nc1cn(C)c(C(=O)Nc2cc(C(=O)Nc3cc(C(=O)Nc4cc(C(=O)NCCCN(C)CCCN[14C](=O)c5cccc([14C](=O)O)c5)n(C)c4)n(C)c3)n(C)c2)n1
tissue concentration (NSG mouse, male, LNCaP xenograft, LNCaP xenograft tumour; intraperitoneal, 20 nmol/animal, 24 h): 1.06 µM

COc1ccc(-c2oc3c(OC)c(OC)c(OC)c(OC)c3c(=O)c2OC)cc1OC
tissue to peel content ratio (C57BL/6 mouse, male, plasma; oral, 1% w/w in diet, 6 weeks, orange peel extract diet; relative to: content in orange peel): 0.064%

CCCC[C@@H]1NC(=O)[C@@H](NC(=O)[C@H](CCC(=O)O)NC(=O)CNC(=O)CN2CCN(CC(=O)O)CCN(CC(=O)O)CCN(CC(=O)O)CC2)CCCCNC(=O)C[C@@H](C(N)=O)NC(=O)[C@H](C(C)C)NC(=O)[C@@H]2CCCN2C(=O)[C@H](CCCNC(=N)N)NC(=O)CNC(=O)[C@H](Cc2c[nH]c3ccccc23)NC(=O)[C@H](CCCNC(=N)N)NC(=O)[C@@H](Cc2ccccc2)NC(=O)[C@H](Cc2c[nH]cn2)NC(=O)[C@H](CCC(=O)O)NC1=O [indium-111 labelled]
tissue uptake (C57 mouse, B16/F10 lung metastasis, lung; intravenous, 0.037 MBq, 2 h): 2 ± 0.74 %ID/g

COc1ccc(S(=O)(=O)Nc2nc(-c3cccc([N+](=O)[O-])c3)c(CN3CCCCC3)s2)cc1OC
tissue concentration (wild-type mouse, muscle; oral, 300 mg/kg, 5 h): 1.6 µM

COc1ccc(-c2cc(=O)c3c(OC)c(OC)c(OC)cc3o2)cc1OC
tissue to peel content ratio (C57BL/6 mouse, male, colon; oral, 1% w/w in diet, 6 weeks, orange peel extract diet; relative to: content in orange peel): 0.254%

Some of these lines once more:
COc1ccc(-c2cc(=O)c3c(OC)c(OC)c(OC)c(OC)c3o2)cc1
tissue to peel content ratio (C57BL/6 mouse, male, colon; oral, 1% w/w in diet, 6 weeks, orange peel extract diet; relative to: content in orange peel): 0.121%
